Experimental data gathered from unrelated publications.
Compare with care: the assays were run in different laboratories. Values joined by “and” are separate records of one study, mostly repeats; a detail may differ. Numbers after ± are the reported error.
ERBB2: Receptor tyrosine-protein kinase erbB-2 (ERBB2, Homo sapiens, UniProt P04626)
Chain of UniProt P61981 (whole entry, looked up): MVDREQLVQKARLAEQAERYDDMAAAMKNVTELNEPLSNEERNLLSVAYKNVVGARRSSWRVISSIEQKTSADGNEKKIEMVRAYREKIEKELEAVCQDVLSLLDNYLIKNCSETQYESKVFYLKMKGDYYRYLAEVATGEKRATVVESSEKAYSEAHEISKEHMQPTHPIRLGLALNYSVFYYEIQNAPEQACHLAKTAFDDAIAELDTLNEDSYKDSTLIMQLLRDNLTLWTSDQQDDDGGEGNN
Chain of UniProt P00811 (whole entry, looked up): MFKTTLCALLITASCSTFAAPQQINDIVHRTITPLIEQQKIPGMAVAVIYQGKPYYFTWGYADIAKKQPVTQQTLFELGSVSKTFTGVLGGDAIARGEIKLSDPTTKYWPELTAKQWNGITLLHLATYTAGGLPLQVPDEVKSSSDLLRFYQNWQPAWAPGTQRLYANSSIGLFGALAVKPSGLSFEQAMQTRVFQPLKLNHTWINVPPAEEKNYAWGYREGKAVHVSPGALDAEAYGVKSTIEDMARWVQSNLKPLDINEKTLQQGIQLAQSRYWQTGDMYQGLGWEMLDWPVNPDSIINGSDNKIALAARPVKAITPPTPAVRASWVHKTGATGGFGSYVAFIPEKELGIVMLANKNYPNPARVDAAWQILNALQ
Chain of UniProt Q96SW2 (whole entry, looked up): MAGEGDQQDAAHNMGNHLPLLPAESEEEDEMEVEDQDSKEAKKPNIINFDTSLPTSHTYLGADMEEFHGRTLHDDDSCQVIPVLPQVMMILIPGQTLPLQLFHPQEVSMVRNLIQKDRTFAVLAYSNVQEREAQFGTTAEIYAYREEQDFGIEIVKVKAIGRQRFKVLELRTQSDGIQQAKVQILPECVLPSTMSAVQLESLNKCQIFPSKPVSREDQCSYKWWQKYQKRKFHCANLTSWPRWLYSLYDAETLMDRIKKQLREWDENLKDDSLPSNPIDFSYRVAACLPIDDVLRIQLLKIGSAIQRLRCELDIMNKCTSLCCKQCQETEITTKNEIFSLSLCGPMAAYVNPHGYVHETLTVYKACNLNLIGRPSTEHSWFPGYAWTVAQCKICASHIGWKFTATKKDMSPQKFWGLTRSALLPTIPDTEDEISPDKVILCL
Chain of UniProt Q8N8S7 (whole entry, looked up): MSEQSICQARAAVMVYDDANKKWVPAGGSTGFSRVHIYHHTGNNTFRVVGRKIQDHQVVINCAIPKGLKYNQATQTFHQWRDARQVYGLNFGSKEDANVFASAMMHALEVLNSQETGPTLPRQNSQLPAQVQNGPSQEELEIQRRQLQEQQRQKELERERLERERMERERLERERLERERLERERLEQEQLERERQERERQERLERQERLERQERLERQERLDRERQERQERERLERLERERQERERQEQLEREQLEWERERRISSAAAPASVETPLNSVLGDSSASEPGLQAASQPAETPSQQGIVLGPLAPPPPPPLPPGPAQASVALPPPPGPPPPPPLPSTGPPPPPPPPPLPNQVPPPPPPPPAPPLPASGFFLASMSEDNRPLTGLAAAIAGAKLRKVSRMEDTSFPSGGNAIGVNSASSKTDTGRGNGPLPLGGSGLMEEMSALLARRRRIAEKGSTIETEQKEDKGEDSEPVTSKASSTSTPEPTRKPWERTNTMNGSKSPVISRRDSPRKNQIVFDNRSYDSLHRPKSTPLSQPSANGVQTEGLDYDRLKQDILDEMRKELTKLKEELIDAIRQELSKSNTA
Chain of UniProt Q9LIR4 (whole entry, looked up): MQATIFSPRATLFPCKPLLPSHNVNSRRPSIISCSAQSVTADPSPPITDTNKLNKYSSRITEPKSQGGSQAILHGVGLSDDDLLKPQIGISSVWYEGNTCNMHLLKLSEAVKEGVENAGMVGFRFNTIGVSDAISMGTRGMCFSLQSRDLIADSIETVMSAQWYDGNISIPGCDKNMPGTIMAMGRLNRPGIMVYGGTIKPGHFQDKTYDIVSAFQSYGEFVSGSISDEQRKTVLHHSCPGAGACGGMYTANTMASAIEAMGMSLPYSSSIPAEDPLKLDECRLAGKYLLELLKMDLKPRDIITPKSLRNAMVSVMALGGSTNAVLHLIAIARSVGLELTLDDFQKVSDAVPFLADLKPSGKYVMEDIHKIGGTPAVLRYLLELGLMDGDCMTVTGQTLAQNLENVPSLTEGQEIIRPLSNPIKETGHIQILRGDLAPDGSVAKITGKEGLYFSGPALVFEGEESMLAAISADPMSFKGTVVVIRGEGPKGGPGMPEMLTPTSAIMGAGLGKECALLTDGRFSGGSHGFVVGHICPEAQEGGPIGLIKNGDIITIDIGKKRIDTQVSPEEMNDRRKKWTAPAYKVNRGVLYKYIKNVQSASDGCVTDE
Chain of UniProt O00459 (whole entry, looked up): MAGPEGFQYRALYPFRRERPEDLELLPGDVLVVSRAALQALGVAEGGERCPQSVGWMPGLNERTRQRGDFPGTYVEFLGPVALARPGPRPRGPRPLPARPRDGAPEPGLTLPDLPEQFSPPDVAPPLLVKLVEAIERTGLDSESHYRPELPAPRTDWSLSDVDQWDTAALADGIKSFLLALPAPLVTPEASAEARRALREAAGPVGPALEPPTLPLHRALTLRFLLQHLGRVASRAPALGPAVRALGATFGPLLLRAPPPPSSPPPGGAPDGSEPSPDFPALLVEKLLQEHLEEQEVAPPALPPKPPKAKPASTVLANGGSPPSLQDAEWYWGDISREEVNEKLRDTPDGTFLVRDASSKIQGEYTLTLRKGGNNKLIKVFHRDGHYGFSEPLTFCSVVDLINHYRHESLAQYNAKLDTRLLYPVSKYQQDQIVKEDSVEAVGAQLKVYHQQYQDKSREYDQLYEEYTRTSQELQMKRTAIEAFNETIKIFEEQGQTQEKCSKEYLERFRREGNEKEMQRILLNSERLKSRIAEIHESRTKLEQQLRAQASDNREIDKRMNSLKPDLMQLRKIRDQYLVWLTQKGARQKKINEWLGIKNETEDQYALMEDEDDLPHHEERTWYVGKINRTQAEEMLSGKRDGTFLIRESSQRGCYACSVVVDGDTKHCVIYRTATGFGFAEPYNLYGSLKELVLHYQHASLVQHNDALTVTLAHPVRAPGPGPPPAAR
Chain of UniProt P08510 (whole entry, unmodified, looked up): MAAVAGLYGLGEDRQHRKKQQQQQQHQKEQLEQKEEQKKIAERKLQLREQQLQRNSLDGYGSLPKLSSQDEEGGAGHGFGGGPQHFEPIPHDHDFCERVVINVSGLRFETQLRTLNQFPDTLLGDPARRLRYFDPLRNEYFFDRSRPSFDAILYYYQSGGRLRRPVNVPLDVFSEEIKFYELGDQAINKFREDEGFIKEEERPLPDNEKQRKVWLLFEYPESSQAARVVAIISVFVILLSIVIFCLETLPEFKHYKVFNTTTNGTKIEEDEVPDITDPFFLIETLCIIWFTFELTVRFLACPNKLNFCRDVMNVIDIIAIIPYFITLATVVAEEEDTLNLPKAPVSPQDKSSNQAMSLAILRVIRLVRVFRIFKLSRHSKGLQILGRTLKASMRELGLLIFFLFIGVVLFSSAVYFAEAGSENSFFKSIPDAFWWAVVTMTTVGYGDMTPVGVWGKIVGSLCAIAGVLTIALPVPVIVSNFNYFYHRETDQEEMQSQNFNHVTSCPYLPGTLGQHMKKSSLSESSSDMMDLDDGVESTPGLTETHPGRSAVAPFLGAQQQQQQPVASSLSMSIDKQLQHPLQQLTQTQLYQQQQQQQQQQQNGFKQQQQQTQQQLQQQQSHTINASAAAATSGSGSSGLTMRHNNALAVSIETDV
Chain of UniProt P34972 (whole entry, looked up): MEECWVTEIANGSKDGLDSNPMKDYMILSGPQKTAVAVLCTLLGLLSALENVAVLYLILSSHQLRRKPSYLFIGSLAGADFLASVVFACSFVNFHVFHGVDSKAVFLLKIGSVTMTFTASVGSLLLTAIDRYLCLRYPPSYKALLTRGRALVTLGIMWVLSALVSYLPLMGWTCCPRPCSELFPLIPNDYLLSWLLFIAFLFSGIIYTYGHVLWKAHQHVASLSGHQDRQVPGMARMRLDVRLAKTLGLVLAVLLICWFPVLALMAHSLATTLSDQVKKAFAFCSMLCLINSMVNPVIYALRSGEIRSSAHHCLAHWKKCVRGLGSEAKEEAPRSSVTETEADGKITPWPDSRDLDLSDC
Chain of UniProt P33913 (whole entry, unmodified, looked up): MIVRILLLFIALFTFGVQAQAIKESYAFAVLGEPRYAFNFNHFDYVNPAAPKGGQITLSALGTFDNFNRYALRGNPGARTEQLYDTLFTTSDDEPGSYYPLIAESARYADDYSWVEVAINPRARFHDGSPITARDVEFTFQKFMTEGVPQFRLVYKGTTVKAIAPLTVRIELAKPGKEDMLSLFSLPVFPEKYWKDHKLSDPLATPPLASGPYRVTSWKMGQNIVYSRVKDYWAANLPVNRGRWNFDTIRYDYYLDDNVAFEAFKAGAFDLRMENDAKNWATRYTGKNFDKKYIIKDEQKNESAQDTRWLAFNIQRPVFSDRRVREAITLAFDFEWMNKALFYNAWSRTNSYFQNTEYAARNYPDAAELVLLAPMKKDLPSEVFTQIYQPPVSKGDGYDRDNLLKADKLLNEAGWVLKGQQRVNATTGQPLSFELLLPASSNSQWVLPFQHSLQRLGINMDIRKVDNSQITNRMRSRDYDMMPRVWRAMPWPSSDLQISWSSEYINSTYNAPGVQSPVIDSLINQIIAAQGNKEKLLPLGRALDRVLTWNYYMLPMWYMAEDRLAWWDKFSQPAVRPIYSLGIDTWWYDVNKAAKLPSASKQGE
Chain of UniProt P50552 (whole entry, looked up): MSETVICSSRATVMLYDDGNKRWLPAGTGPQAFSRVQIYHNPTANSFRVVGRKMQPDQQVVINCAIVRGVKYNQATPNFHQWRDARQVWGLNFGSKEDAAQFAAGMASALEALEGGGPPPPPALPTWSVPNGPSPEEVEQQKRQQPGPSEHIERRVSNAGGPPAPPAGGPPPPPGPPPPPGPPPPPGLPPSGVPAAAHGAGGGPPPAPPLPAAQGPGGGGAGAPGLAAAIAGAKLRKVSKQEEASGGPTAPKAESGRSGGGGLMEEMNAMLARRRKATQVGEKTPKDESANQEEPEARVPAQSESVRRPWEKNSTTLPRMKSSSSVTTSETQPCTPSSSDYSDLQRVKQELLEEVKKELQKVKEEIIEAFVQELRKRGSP

SMILES	tested on	assay	test system	setting	measurement	result
CSCC[C@@H](N)C(=O)N[C@H](C)C(=O)N[C@H](C)C(=O)N[C@@H](C(=O)N[C@H](C)C(=O)NCC(=O)N[C@H](CC(C)C)C(=O)N[C@H](Cc1ccc(O)cc1)C(=O)NCC(=O)N[C@H](CC(C)C)C(=O)NCC(=O)N[C@H](CCC(=O)O)C(=O)N[C@H](CC(=O)O)C(=O)N[C@H](CCCNC(=N)N)C(=O)N[C@H](CCC(N)=O)C(=O)N[C@H](Cc1c[nH]cn1)C(=O)N[C@H](CCCNC(=N)N)C(=O)N[C@H](CCCCN)C(=O)N[C@H](CCCCN)C(=O)N[C@H](CCC(N)=O)C(N)=O)C(C)C	Sh, DEL6-46 (Drosophila melanogaster, UniProt P08510)	ion current, blocker, inside-out patch clamp	–	+90 mV	Kd	3.5 µM
C#CCN1C(=O)C(CC#C)(C(=O)OCC)Oc2ccccc21 (stereo not shown)	Dihydroxy-acid dehydratase, chloroplastic (DHAD, Arabidopsis thaliana, UniProt Q9LIR4)	binding, microscale thermophoresis	–	25 °C	Kd	83.2 µM
CC(C)C[C@H](NC(=O)[C@@H](NC(=O)[C@H](C)NC(=O)[C@@H](NC(=O)CN)C(C)C)C(C)C)C(=O)N[C@@H](CC(=O)O)C(=O)N[C@H]1CC(=O)NC1=O	Protein cereblon, with DDB1 (CRBN, Homo sapiens, UniProt Q96SW2)	binding	–	–	Kd	0.00686 µM
CSCC[C@H](NC(=O)[C@H](Cc1c[nH]cn1)NC(=O)[C@H](C)NC(=O)[C@H](Cc1ccc(OP(=O)(O)O)cc1)NC(=O)[C@@H]1CCCN1C(=O)[C@H](CCC(N)=O)NC(=O)[C@H](CCCNC(=N)N)NC(=O)[C@H](CCC(=O)O)NC(=O)[C@H](CC(=O)O)NC(=O)[C@H](Cc1ccccc1)NC(=O)[C@H](CO)NC(=O)[C@H](C)NC(=O)[C@H](CCCNC(=N)N)NC(=O)c1ccc2c(c1)C(=O)OC21c2ccc(N(C)C)cc2Oc2cc(N(C)C)ccc21)C(=O)N[C@@H](CC(N)=O)C(=O)NCC(=O)NCC(=O)N[C@@H](CCCNC(=N)N)C(=O)N[C@@H](CC(=O)O)C(=O)O	Phosphatidylinositol 3-kinase regulatory subunit beta, SH2 domain (Homo sapiens, UniProt O00459)	binding	–	–	Kd	0.588 µM
C=CC1CN(Cc2ccccn2)C(=O)C2CCCC1N2[S+]([O-])c1cc(Cl)cc(Cl)c1 (stereo not shown)	uncharacterized protein, residues 23-253 (Pseudomonas aeruginosa, UniProt Q9HYX8)	binding, competitive fluorescence polarization	–	30 min, protein 40 nM, added: fluorescent tracer 1 nM	Kd	3.69 ± 0.35 µM
CC(=O)N[C@@H](CO)C(=O)N[C@@H](Cc1ccccc1)C(=O)N[C@@H](CCC(=O)O)C(=O)N[C@@H](Cc1ccccc1)C(=O)N1CC[C@@H]2C=C[C@H]3CC[C@@H](C(=O)N4CCC[C@H]4C(=O)N4CCC[C@H]4C(=O)N[C@H](C(=O)N[C@@H](CCC(=O)O)C(=O)N[C@@H](CC(=O)O)C(=O)N[C@@H](CCC(=O)O)C(=O)N[C@@H](CC(C)C)C(N)=O)[C@@H](C)O)N3C(=O)[C@H]21	Protein enabled homolog (ENAH, UniProt Q8N8S7)	binding, fluorescence	–	–	Kd	8 µM
CC[C@H](C)[C@H](NC(=O)[C@H](CCCCN)NC(=O)[C@H](C)NC(=O)[C@H](CCCNC(=N)N)NC(=O)[C@H](CCCCN)NC(=O)[C@H](CCC(N)=O)NC(=O)[C@H](CCC(N)=O)NC(=O)[C@H](CC(N)=O)NC(=O)[C@H](CS)NC(=O)[C@H](CC(C)C)NC(=O)[C@H](CC(N)=O)NC(=O)[C@@H]1CCCN1C(=O)[C@H](CC(=O)O)NC(=O)[C@H](CC(C)C)NC(=O)[C@H](C)NC(=O)[C@H](C)NC(=O)[C@H](CCC(=O)O)NC(=O)[C@H](Cc1c[nH]c2ccccc12)NC(=O)[C@H](Cc1ccc(O)cc1)NC(=O)[C@H](CCCNC(=N)N)NC(=O)[C@H](CC(N)=O)NC(=O)[C@H](CCCNC(=N)N)NC(=O)[C@H](CCSC)NC(=O)[C@H](CCC(=O)O)NC(=O)[C@H](CCCCN)NC(=O)[C@H](CO)NC(=O)[C@H](Cc1ccccc1)NC(C)=O)C(=O)N[C@@H](CCCNC(=N)N)C(=O)N[C@@H](CO)C(=O)N[C@H](C(=O)N[C@@H](Cc1ccc(O)cc1)C(=O)N[C@@H](CCC(=O)O)C(=O)N[C@@H](CCC(=O)O)C(=O)NCC(=O)N[C@@H](CCC(=O)O)C(N)=O)[C@@H](C)CC	ERBB2	binding, SPR	–	–	Kd	0.044 µM
C[C@H](N)C(=O)N[C@@H](CCCNC(=N)N)C(=O)N[C@H](C(=O)N[C@@H](CCCCN(C)C)C(=O)N[C@@H](CCC(N)=O)C(=O)N[C@H](C(=O)N[C@@H](C)C(=O)N[C@@H](CCCNC(=N)N)C(=O)N[C@@H](CCCCN)C(=O)N[C@@H](CO)C(=O)N[C@H](C(=O)NCC(=O)NCC(=O)N[C@@H](CCCCN)C(=O)N[C@@H](C)C(N)=O)[C@@H](C)O)[C@@H](C)O)[C@@H](C)O	Polycomb protein Sfmbt (Sfmbt, Drosophila melanogaster, UniProt Q9VK33)	fluorescence polarization	–	pH 8.0	Kd	3.4 µM
Cn1c(C(C)(C)C)c/c(=N\C(=O)c2cc(C(F)(F)F)ccc2OCC(C)(C)O)n1CC1CCC1	Cannabinoid receptor 2 (CNR2, Homo sapiens, UniProt P34972)	binding, radioligand	–	cell membranes	Kd	0.00308 µM
CCn1ccc(-c2cc(C(C)NC(=O)c3cc(N4CC5CC4CN5C)ccc3C)c3ccccc3n2)n1 (stereo not shown)	Vero E6	–	–	31.25 µM	viability	26.7% and 29.2% and 25.7%
CC(=O)N[C@@H](CO)C(=O)N[C@@H](Cc1ccccc1)C(=O)N[C@@H](CCC(=O)O)C(=O)N[C@@H](Cc1ccccc1Cl)C(=O)N1CCC[C@]12C=C[C@@H]1CC[C@@H](C(=O)N3CC[C@@H]4C=C[C@H]5CC[C@@H](C(=O)N[C@H](C(=O)N[C@@H](CCC(=O)O)C(=O)N[C@@H](CC(=O)O)C(=O)N[C@@H](CCC(=O)O)C(=O)N[C@@H](CC(C)C)C(N)=O)[C@@H](C)O)N5C(=O)[C@H]43)N1C2=O	Vasodilator-stimulated phosphoprotein (VASP, Homo sapiens, UniProt P50552)	binding, fluorescence	–	–	Kd	0.25 µM
CC[C@H](C)[C@H](NC(=O)[C@H](CO)NC(=S)Nc1ccc2c(c1)C(=O)OC21c2ccc(O)cc2Oc2cc(O)ccc21)C(=O)N[C@@H](CCC(=O)O)C(=O)N[C@@H](CCCCN)C(=O)NCC(=O)NCC(=O)N[C@@H](CCP(=O)(O)O)C(=O)N[C@@H](CC(C)C)C(=O)N1CCC[C@H]1C(=O)N[C@@H](CCCCN)C(=O)N[C@H](C(=O)N[C@@H](Cc1c[nH]c2ccccc12)C(=O)N[C@@H](CC(C)C)C(=O)N[C@H](C(=O)N1CCC[C@H]1C(=O)N[C@@H](CCCNC(=N)N)C(=O)O)C(C)C)C(C)C	14-3-3 protein gamma (YWHAG, Homo sapiens, UniProt P61981)	binding, fluorescence anisotropy	–	pH 7.5, FITC-labelled phosphopeptide titration	Kd	33.1 µM
O=C(N[C@@H]1c2ccccc2C[C@H]1N1CCCC1)c1ccc(-c2ccnc3[nH]ccc23)nc1	Proto-oncogene tyrosine-protein kinase receptor Ret (RET, Homo sapiens, UniProt P07949)	binding, competition with immobilised ligand	–	–	Kd	0.315 µM
O=P(O)(O)Oc1c2c(c(OP(=O)(O)O)c3c1C1CC3c3cc4c(cc31)C1CC4c3ccccc31)C1CC2c2cc3c(cc21)C1CC3c2ccccc21	Transitional endoplasmic reticulum ATPase (VCP, Homo sapiens, UniProt P55072)	binding, ITC	–	pH 7.4	Kd	21.7 µM
O=C1NC2(CC2)COc2ncc(F)cc2[C@H]2COCCN2c2ccn3ncc1c3n2	–	–	Sprague-Dawley rat, male, thymus	oral, 10 mg/kg/day, 4 weeks dosing, end of recovery	organ-to-body weight ratio	0.078 ± 0.01%
CSCC[C@H](NC=O)C(=O)N[C@@H](CCCNC(=N)N)C(=O)N[C@H](C(=O)NCC(=O)N[C@@H](CC(N)=O)C(=O)N[C@@H](C)C(=O)N[C@@H](CC(N)=O)C(=O)NCC(=O)NCC(=O)N[C@@H](CCCCNC(=S)Nc1ccc2c(c1)C(=O)OC21c2ccc(O)cc2Oc2cc(O)ccc21)C(=O)O)[C@@H](C)O	Uncharacterized protein YejA (yejA, Escherichia coli, UniProt P33913, Q150A)	binding, fluorescence polarisation	–	YejA variant Q132A	Kd	30.3 ± 2.14 µM
CCCC[C@H](NC(=O)[C@H](CCC(=O)O)NC(=O)[C@H](CCCCN)NC(=O)[C@H](CO)NC(=O)[C@H](Cc1ccccc1)NC(C)=O)C(=O)N[C@@H](CCCNC(=N)N)C(=O)N[C@@H](CC(N)=O)C(=O)N[C@@H](CCCNC(=N)N)C(=O)N[C@@H](Cc1ccc(O)cc1)C(=O)N[C@@H](Cc1c[nH]c2ccccc12)C(=O)N[C@@H](CCCC(=O)NCCN(CC(=O)NCCN(CC(=O)NCCN(CC(=O)NCCN(CC(=O)N[C@@H](CCCNC(=N)N)C(N)=O)C(=O)Cn1cnc2c(=O)[nH]c(N)nc21)C(=O)Cn1ccc(N)nc1=O)C(=O)Cn1ccc(N)nc1=O)C(=O)Cn1cnc2c(=O)[nH]c(N)nc21)C(=O)N[C@@H](CS)C(=O)N[C@@H](C)C(=O)N[C@@H](CC(C)C)C(=O)N[C@@H](CC(=O)O)C(=O)N1CCC[C@H]1C(=O)N[C@@H](CC(N)=O)C(=O)N[C@@H](CC(C)C)C(=O)N[C@H](C(=O)N[C@@H](CC(N)=O)C(=O)N[C@@H](CCC(N)=O)C(=O)N[C@@H](CCC(N)=O)C(=O)N[C@@H](CCCCN)C(=O)N[C@@H](CCCNC(=N)N)C(=O)N[C@@H](C)C(=O)N[C@@H](CCCCNC(=O)CN(CCNC(=O)CN(CCNC(=O)CN(CCNC(=O)CN(CCNC(=O)[C@H](CCCNC(=N)N)NC(C)=O)C(=O)Cn1ccc(N)nc1=O)C(=O)Cn1cnc2c(=O)[nH]c(N)nc21)C(=O)Cn1cnc2c(=O)[nH]c(N)nc21)C(=O)Cn1ccc(N)nc1=O)C(=O)N[C@H](C(=O)N[C@@H](CCCNC(=N)N)C(=O)N[C@@H](CO)C(=O)N[C@H](C(=O)N[C@@H](Cc1ccc(O)cc1)C(=O)N[C@@H](CCC(=O)O)C(=O)N[C@@H](CCC(=O)O)C(=O)NCC(=O)N[C@@H](CCC(=O)O)C(N)=O)[C@@H](C)CC)[C@@H](C)CC)[C@@H](C)O	ERBB2	binding, SPR	–	resynthesised library hit	Kd	0.0016 µM
Cc1ccc(N2C[C@@H]3C[C@H]2CN3C)cc1C(=O)N[C@H](C)c1cc(-c2cnn(C)c2)nc2ccccc12	African green monkey cells	–	–	15.62 µM	viability	95.9%
Cc1ccc(O)c(NC(=O)C2CCCC2)c1	Beta-lactamase (ampC, Escherichia coli K-12, UniProt P00811)	–	–	–	Kd	4500 µM

Excerpt of the above:
SMILES	tested on	assay	test system	setting	measurement	result
CCn1ccc(-c2cc(C(C)NC(=O)c3cc(N4CC5CC4CN5C)ccc3C)c3ccccc3n2)n1 (stereo not shown)	Vero E6	–	–	31.25 µM	viability	26.7% and 29.2% and 25.7%
